Experimental data gathered from unrelated publications.
A part holds a random share of what one study measured.

Block 1 — technique: RNA Bind-n-Seq; form: RNA; sample: in vitro; tested at: 200 nM; notes: whole 134-nt RNA, ends assumed; with: 150 mM KCl; baseline: input library; direction: higher = stronger binding; measurement: log2 enrichment
Target: Fragile X messenger ribonucleoprotein 1, C-terminal low-complexity region (Fmr1, Mus musculus, UniProt P35922)
Shared flanks, not repeated: GGGAGUUCUACAGUCCGACGAUC … UGGAAUUCUCGGGUGUCAAGG
CACAGACAACACGCACCCACACAGACACAGAGGGAAGGGGUUGGGAUGGGGACAGGGUGGACAGCAGGGCGGGGUAGGACCCCAGCCCCU: 1.19
CUGUGCUACACAUCGUAUGUACCGAAUCGGGGUUUUUUUGGGUUUUUUUGGUUUUUUUGGGGAAAGUAUUAUGUUACGCCGUUCGGAUCU: -0.188
CACAGACAACACGUACCCACACAGACACAGAGGGAAGGGGUUGGGAUGGGGACAGGGUGCACAGCAGGGCGGGGUAGGACCCCAGCCCCU: 1.4
CAAGUCCUGUGCUACACAUCGUAUGUACCGAAUCGGAAAAAGGUUUUUGGAAAGGAAAGUAUUAUGUUACGCCGUUCGGAUCUGCACUUC: -1.06
GCAGGAAGUAAAAACAAAUGGAAAUGCUUCGGAUAGUGGCAGCGGUGGGGGUUGCUAAGGAAAGGGUGGGAUGGGAGUGGGUAAAGAGUU: 0.488
GUCCUGUGCUACACAUCGUAUGUACCGAAUCGGGGUUUUUGGUUUUUGGUUUUUGGGGAAAGUAUUAUGUUACGCCGUUCGGAUCUGCAC: -0.353
UCCUGUGCUACACAUCGUAUGUACCGAAUCGGGUUUUUGGGUUUUUUUGGGUUUUUGGGAAAGUAUUAUGUUACGCCGUUCGGAUCUGCA: 0.247
GUCCUGUGCUACACAUCGUAUGUACCGAAUCGGGGAAAGGGGAAAAAGGGGUUUGGGGAAAGUAUUAUGUUACGCCGUUCGGAUCUGCAC: 0.337
AGUCCUGUGCUACACAUCGUAUGUACCGAAUCGGGUUUUUGGGUUUUUUUGGGAGGGAAAGUAUUAUGUUACGCCGUUCGGAUCUGCACU: 0.595
CACAGACAACACGCACCCACACAGACACAGAAAGAAGGGGUUGGGAUGGGGACAGGGUGCACAGCAGGGCGGGGUAGGACCCCAGCCCCU: 1.15
AGUCCUGUGCUACACAUCGUAUGUACCGAAUCGGGGUGGGGUUUUUGGGGUUUGGGGAAAGUAUUAUGUUACGCCGUUCGGAUCUGCACU: 0.845
GAAAAUUUCUCAGUUCUUAAGAAUGCUUGCUGUGGGUAUAGUGCAGGUAUAUUGAAAGGAAUUUUUUUCUUGCAGCGGGAAAGAGACAUG: -1.01
UCCUCAAGUCCUGUGCUACACAUCGUAUGUACCGAAUCGGUGGGUGGGGUGGAAAGUAUUAUGUUACGCCGUUCGGAUCUGCACUUCCAG: 0.444
AAAAAAAGUGUGUAUUAGGAGGAGAGAGAGGAAAAAAAGAGGAAAGAAGGAAAAAAAAAAGAAUUAAAAAAAAAAAAAAGAAAAACAGAA: 0.0173

Block 2 — technique: protein-binding microarray; form: double-stranded DNA, one strand shown; sample: in vitro; tested at: 250 nM; notes: 60-bp whole probe; with: salmon DNA 0.4 mg/ml; baseline: random background probes; direction: higher = stronger binding; measurement: log fluorescence; shared flanks, not repeated: GCCTAGCAC … GTCTTGATTCGCTTGACGCTGCTG
Target: Interferon regulatory factor 7, full length, phosphomimetic (IRF7, Homo sapiens, UniProt Q92985, residues 1-503, S101K/S471D/S472D/S475D/S476D/S477D/S483D/S484D/S487D)
UniProt Q92985, sequence (whole entry, unmodified, looked up): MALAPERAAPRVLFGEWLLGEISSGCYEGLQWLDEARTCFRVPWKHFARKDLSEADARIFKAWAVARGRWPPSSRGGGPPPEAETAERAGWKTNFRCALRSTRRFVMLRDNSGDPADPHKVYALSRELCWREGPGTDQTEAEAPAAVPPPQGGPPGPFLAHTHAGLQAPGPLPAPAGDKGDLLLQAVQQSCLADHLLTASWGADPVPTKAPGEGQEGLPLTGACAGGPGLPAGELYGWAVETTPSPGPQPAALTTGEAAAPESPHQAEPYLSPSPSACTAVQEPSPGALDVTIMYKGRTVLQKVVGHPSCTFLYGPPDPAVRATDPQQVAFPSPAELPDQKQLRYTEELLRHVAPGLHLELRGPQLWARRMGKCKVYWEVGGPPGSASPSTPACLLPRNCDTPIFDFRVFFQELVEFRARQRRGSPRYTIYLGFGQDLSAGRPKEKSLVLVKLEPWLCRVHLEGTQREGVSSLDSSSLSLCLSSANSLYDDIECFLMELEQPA
TTAGCTTCCAGTTTCGATTAGTGCTAG: 8.05 z-score
TTAGATTTCAGTTTCGATGAGTGCTAG: 3.18 z-score
TTTCCCTAGAAGACGAAAGAGTGCTAG: 3.6 z-score
TCATGTCCTCCTCTCTCACTGTGCTAG: 0.733 z-score
GACGGTTTCCCTTCCCTGACGTGCTAG: 3.5 z-score
TTAAGACTGCTTTTCCTTTAGTGCTAG: 1.03 z-score
TTAGGTCTCGGTCGCGGTTAGTGCTAG: 0.584 z-score
CACGGTATCGACTATCGGGACGTGCTA: 0.23 z-score
GACGATTTCGGGTTTTGAGACGTGCTA: 1.11 z-score
GACGGTTTCGGATTGGGGACGTGCTAG: 11.7 z-score
CTCATTTTCATTTTGTGTCTGTGCTAG: 2.74 z-score
TCATTTCTCAGTTTATTACTGTGCTAG: 2.49 z-score
AAGAATCAGGGGTTTTATCCGTGCTAG: -0.763 z-score
TCACTCTTCTTTTTTTTACTGTGCTAG: 0.877 z-score
TCACTTCTGTTTTTGCTACTGTGCTAG: 1.05 z-score
TTCTACTTCTGTTTTTGCTTGTGCTAG: 0.804 z-score
GACGGTTTCTTTTCCCTGACGTGCTAG: 4.57 z-score
TTGCCTCTGCTGCTGGCCGCGTGCTAG: 0.0888 z-score
TCAACACTGGTTTTTACACTGTGCTAG: -0.473 z-score
GACGGTAGCGACTTTCGGGACGTGCTA: -0.513 z-score
CTGTGTGTCAGGTTTACTAGGGTGCTA: -0.444 z-score
CTCTGTTTATGTCTGGGTATGTGCTAG: 0.997 z-score
TTATGTGTAGGTCTTAAATAGTGCTAG: -0.374 z-score
GACGCACTGCTTTTCCTGACGTGCTAG: 0.25 z-score
GACGGTATCGGGTTGCGGGACGTGCTA: 2.23 z-score

Block 3 — technique: RNA Bind-n-Seq; form: RNA; sample: in vitro; tested at: 365 nM; baseline: no-protein control; direction: higher = stronger binding; measurement: RBNS enrichment (R)
Target: RNA binding protein fox-1 homolog 2, RRM domain, GST-SBP tag (RBFOX2, Homo sapiens, UniProt O43251-10, residues 100-194)
Notes: natural RNA segment, single round, ends assumed
Shared flanks, not repeated: GGGAGUUCUACAGUCCGACGAUC … UGGAAUUCUCGGGUGCCAA
Target sequence (chain): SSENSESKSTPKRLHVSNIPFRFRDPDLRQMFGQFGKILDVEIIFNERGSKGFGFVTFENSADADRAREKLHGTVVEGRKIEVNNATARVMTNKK
UUAACAGUGGCAUAUUUAGGCAUGGAAAUAUUAUUAUGAAAUUUAUUUUCAGGAUCUGCUAUAAGGUUGAAAUUUAGCCCAGCUCUAGGCAUUUUACAAAUUAUUUUUCA: 1.19
CUAGAACCUUGUUGAUCAUGCUCAUAUUCUUCUUGAGGUUUGUUUUUGUUGUUGCGUAGUCUUUGUUUUAUACUUCUACAAUACCCGUAUAGCCUUCCACAUAGAUCUGC: 0.6
CCUCAACAAGAGAUAAAAAAAAACUGUUGCUCAUACCCGUAUCUUACUGGGUUUGUUUUUAAUAUUAUUACAAAAUAGAAUGAUCCAGUGUUGCAGAUUUGAUACAACUC: 0.787
UUAUUGUAAUCUGACACAGGCAAAAUUAUGGUUCCCACACCCCAACCCCAAAUGAAACCUGGGAUUUUGAAUGUGGCUCUAAGAGUUAACAUUGCUGUCUGUAUGUCGUG: 0.483
UUCCGCCAGCAGAGAGAUUGCAGCCUUCUUCCUGACUUCAGUGAACAGCGCUGGUAUGAGGAGGAGGAACCCCAGCUGCGGUGUGGUCCUGUGCACUACAGUCCAGAGGA: 0.316
UCUGCCUGGCCCAGGGGGGCUGCCCCCAUUCCUGGAGCCCAGGGGCCCAGCUUGCAAUUGCUAGUGUCAGGAGUGACUUGUAGCUUUGCCUUGGUUGUGAAAUGAUUUCA: 0.566
GACAGCCCCCCAACAGUAGUAGGCCCUCUGCUGGCUGCAGCCUCCCCAGCCUGCACCCAGACAUGCCAGUGCACAGGGCUUGGUUGGAAGCUCUGAGAGACCAAAUAACA: 0.357
AGGAACAAUCACAGCUAUGUGUGACUUUCCUUUUCCCACCUCACCUUGAUGUAGGUGUUUCAAGUGAACUUUAGACCAACAGUUGCCCAGUGACCUGCUAAAAAGUCAAC: 0.223
ACUGGUCAGCGGGCAGCACGUCAAGGUCACUUAAGCCCACUUUUAACUGCAGGUCAUCCUCGCAUCAGCCAAGGCUGUGGUGCUGUUGAUGCCGCAGUUGGACAGCAUAG: 0.806
ACACUGGGCACUUUUGGAAAUAAUGUUUAAAUCAUUCAGGUUGUGUUCCUGUCCCCAAAACAGAUCUACAAAAUAAUACCAAACCUGAAAGAUUCCAUGGAUUUACGGUG: 0.294
UAUUAUUUCUCUUUGCUUUCUCAAUGUUAAUUUAUUGCAUGGUUUAUUCUUUUUCUUUACAGCUGAAAUUGCUUUAAAUGAUGGUUAAAAUUACAAAUUAAAUUGUUAAU: 2.7
UCCCUUCGAAGGCCCAGAUAAGACAGGGAACACUUGUGAGCACACAGAGCAGCAUCUGAUGCCCUGUGGUGUUUGGCAUGUGCCCCCUGUCUACUGACCAAUCAGUGUGG: 0.274

Block 4 — technique: RNA Bind-n-Seq; form: RNA; sample: in vitro; tested at: not given; notes: RNA with constant flanks, ends assumed; baseline: input RNA pool; direction: higher = stronger binding; measurement: bound/input enrichment
Target: RING finger protein unkempt homolog, zinc fingers 1-6, GST-SBP tag (UNK, Homo sapiens, UniProt Q9C0B0, residues 30-357)
Shared flanks, not repeated: GGGAGUUCUACAGUCCGACGAUC … CAACAGAGGAUUGAGCAUCA
Construct (chain): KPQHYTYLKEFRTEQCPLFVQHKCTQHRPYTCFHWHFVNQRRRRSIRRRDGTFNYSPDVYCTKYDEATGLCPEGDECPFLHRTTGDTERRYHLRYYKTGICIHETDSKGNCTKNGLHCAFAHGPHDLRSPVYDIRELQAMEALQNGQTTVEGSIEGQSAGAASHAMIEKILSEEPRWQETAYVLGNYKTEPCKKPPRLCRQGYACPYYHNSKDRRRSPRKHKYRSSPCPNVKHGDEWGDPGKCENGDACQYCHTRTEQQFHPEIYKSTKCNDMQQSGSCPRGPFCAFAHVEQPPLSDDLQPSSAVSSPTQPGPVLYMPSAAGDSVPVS
CUGUAUUGACCAAAGCUUUCAGUUGUUCUUCAUUCUGUGCUCAGGAUUGAAAUGCUGCGCCGACGUUGUGUUGUUAGUGCUGGGCACGGAUUCUGGGACGGUGAGCUGUUGAUUUCCUAA: 0.082 ratio
AAGAAGAAGCAAGGUGAAGAUAACUCUACUGCACAGGACACAGAAGAAUUAGAAAAAGAGAUCCGAGAAGACCUUCCAGUGAAUACCUCUAAAACCCGUCCAAAACAGGAAAAAGCUUUU: 0.619 ratio
AAGAUCCUCUCGGUAAAUGGCCAAGAUCUGAAGAACCUGCUGCACCAAGAUGCUGCCGACCUCUUCCGUAAUGCGGGAUGUGCUGUGUCCCUGAGAGUACAGCACAGGUUGCUGGUUGUU: 0.135 ratio
AGUCCACUGAUGCAGUGCUCAUUUUACAAUAGAUCAUCUCCUGUACACAUCAUAGCCACCCGCAAAAGUUUACAUUCCUAUGCACGCCCUCCACCAGUGUCCUCUUCUUCGAAGAGUGAA: 0.405 ratio
GAUGUAAGUCAAAGACUUGUUACAUAGAGGGAAAAUGGACUGGGAUAGAGGACAGACUGACCGUUUCUUUCUUUCAUAUCACAUGUAUAGAGAAAUAAUUAUAUCAGAAACUCACAAACC: 0.244 ratio
UAUUAGUGUUGUACCAGCCUAUUAACCUCUUGUCUGUGCACAGCUUCAAAUGUUACCGUCCCGUCCGAUUUUUAUUUAAAAUAUGAAAAACUGCUUUUCCCAAGAUGUUUUUUAAAAACA: 0.653 ratio
AGAGACCUUCUGAAGACGUUUAAAAUCUCAUCUGACACCUUUGUAACCUACAUGAUGACUUCCGAAGACCAUUACCAUUCUGAUGUGGCAUAUCACAACAGCCUGCAUGCUGCUGACGUG: 0.114 ratio
GAAGUCGUUUCUCCCCAACUCCCAACUCCUGAAGGUUGCUGCCUGCAUAUUUACUCUUCAUCCGUGCUAUUUUCCUGUAUGUCAUUGUGAGCAAGCUGUGAUUAAUAAAGAAUUGGAGUU: 0.254 ratio
UGUUGGGGGUGGGUAUAAAAGAUGGGGUCUGUAAAAUCUUUUUUUCUUAGAAAUUCAUUUACCCGUUAUGUAGAAAUGGUUGUAUUAGAUGUUCUCUAUCAUUUAAUAAUAUACUUGUGG: 4.88 ratio
UAUUUUCUAUUUAGUCUGUAUAUUUUGUUCUUCAUAGUCUGUUUUUUCUAGCAUGCUUGAUUCCGGAGAGAAUAAAGGGCUAUAUAAUAAUAAAUCCAGAUUUCCGGAUAAGAAUAUUGC: 28.3 ratio
AUCUUAUUACAGGGACUUGCUGUGCUUGCAAAGGAAAGACCACCAAAUCCCAUUGAAUUUCCCGCAUCUUAUCUUUUAAAAAACAAGGCACAGUUUGAAGAUCGAAACUGACUUAAUGGG: 0.352 ratio

Repeated from above (block 2):
TTGCCTCTGCTGCTGGCCGCGTGCTAG: 0.0888 z-score
GACGGTTTCGGATTGGGGACGTGCTAG: 11.7 z-score
GACGATTTCGGGTTTTGAGACGTGCTA: 1.11 z-score
CTCTGTTTATGTCTGGGTATGTGCTAG: 0.997 z-score
TCATTTCTCAGTTTATTACTGTGCTAG: 2.49 z-score
TTAGCTTCCAGTTTCGATTAGTGCTAG: 8.05 z-score
GACGCACTGCTTTTCCTGACGTGCTAG: 0.25 z-score
TTTCCCTAGAAGACGAAAGAGTGCTAG: 3.6 z-score
